Assay results gathered from unrelated publications.
Each line is one published result; not all experiments were run side by side. ± gives the spread as reported.
BCHE: Cholinesterase (BCHE, Homo sapiens, UniProt P06276)
Sequence of UniProt P06276 (whole entry, looked up): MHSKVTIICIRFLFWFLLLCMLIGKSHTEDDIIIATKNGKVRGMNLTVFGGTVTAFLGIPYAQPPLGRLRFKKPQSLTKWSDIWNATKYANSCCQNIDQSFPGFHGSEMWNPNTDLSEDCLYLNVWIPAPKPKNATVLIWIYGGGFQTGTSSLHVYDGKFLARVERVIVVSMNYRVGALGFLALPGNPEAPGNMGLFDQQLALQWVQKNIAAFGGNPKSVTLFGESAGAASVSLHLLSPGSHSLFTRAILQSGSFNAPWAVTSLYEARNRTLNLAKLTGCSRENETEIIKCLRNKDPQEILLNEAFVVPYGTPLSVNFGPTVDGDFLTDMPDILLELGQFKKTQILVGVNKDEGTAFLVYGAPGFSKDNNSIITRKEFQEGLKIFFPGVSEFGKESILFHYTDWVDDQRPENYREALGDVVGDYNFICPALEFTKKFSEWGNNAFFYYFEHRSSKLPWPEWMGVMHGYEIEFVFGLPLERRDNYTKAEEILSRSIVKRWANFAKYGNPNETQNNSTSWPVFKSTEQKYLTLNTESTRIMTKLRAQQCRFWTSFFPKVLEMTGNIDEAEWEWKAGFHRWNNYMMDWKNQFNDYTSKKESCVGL
Sequence of UniProt Q15759 (whole entry, looked up): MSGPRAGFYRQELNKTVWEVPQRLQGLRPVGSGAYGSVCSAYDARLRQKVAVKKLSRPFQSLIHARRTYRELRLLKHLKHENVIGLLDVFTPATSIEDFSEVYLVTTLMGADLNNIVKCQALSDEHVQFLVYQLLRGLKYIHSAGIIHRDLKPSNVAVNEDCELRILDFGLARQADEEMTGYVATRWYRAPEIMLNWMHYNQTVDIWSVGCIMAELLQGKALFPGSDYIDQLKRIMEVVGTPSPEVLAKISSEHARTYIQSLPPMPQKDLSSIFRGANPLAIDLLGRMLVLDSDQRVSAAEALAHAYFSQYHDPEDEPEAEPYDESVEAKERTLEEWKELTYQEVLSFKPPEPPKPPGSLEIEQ

For `O=C(Nc1ccccc1)C1CCN(C(=O)Oc2cccnc2)CC1`, “change in Colors score” read 0.1 (psychotropic effects VAS; healthy women; 100 mg; baseline: pre-dose baseline, direction not given).
For `CC(C)CC(=O)OC[C@H]1O[C@@](C#N)(c2ccc3c(N)ncnn23)[C@H](O)[C@@H]1O`, the recovery was 93.7% (plasma protein binding; mouse plasma; 90 µM, time not given).
With `CN1CCN(c2ccc(Nc3nccc(-c4ccnc(Cl)c4)n3)cc2C(F)(F)F)CC1` the toxicity was 30 ± 30% (zebrafish embryos; 50 µM, 5 d).
`c1cc2ccc3cccc4ccc(c1)c2c34` gave a log K(PDMS-water) of 4.3 ± 0.01 (fresh water; 12 (unit not given), 20 °C, S100 sampler, 100 µm).
For `C[C@@H](NC(=O)N1C(=O)[C@H](Cc2ccnc(N)c2)[C@H]1C(=O)O)C1CCCCC1`, “incidence of decreased neutrophil” read 0% (healthy adult Chinese volunteers; continuous intravenous infusion, 1.0 mg/kg/h, 5-day infusion, CTCAE 5.0 grading).
`CC[C@H](C)[C@H](NC(=O)[C@H](Cc1ccccc1)NC(=O)[C@H](CCC(=O)O)NC(=O)[C@H](CCCNC(=N)N)NC(=O)[C@H](C)NC(=O)[C@H](C)NC(=O)[C@H](CCC(N)=O)NC(=O)[C@H](CCC(=O)O)NC(=O)[C@H](CCC(=O)O)NC(=O)[C@H](CC(C)C)NC(=O)[C@H](Cc1ccc(O)cc1)NC(=O)[C@H](CO)NC(=O)[C@H](CO)NC(=O)[C@@H](NC(=O)[C@H](CC(=O)O)NC(=O)[C@H](CO)NC(=O)[C@@H](NC(=O)[C@H](Cc1ccccc1)NC(=O)[C@@H](NC(=O)CNC(=O)[C@H](CCC(=O)O)NC(=O)[C@H](C)NC(=O)CCc1cnc[nH]1)[C@@H](C)O)[C@@H](C)O)C(C)C)C(=O)N[C@@H](C)C(=O)N[C@@H](Cc1c[nH]c2ccccc12)C(=O)N[C@@H](CC(C)C)C(=O)N[C@H](C(=O)N[C@@H](CCCNC(=N)N)C(=O)NCC(=O)N[C@@H](CCCNC(=N)N)C(=O)N[C@@H](CCCCNC(=O)COCCOCCNC(=O)COCCOCCNC(=O)CC[C@H](NC(=O)CCCCCCCCCCCCCCCCC(=O)O)C(=O)O)C(=O)NCC(=O)NCC(=O)N[C@@H](CO)C(=O)N[C@@H](CCCCNC(=O)[C@H](CCCCNc1c(NCCCCCN(O)C(=O)CCC(=O)NCCCCCN(O)C(=O)CCC(=O)NCCCCCN(O)C(C)=O)c(=O)c1=O)Nc1c(NCCCCCN(O)C(=O)CCC(=O)NCCCCCN(O)C(=O)CCC(=O)NCCCCCN(O)C(C)=O)c(=O)c1=O)C(=O)O)C(C)C` [zirconium-89 labelled] gave a tissue uptake of 0.389 %ID/g (ex vivo gamma counting; male Sprague-Dawley rat, knee; intravenous, 1 nmol, 24 h).
The terminal half-life of `CC(C)[C@H](O)C(=O)N[C@H]1Cc2ccc3c(c2)[C@]2(C4=C(c5nc(CO)co5)N=C(O4)[C@H](C(C)(C)C)NC1=O)c1cc(F)ccc1N[C@@H]2O3` is reported as 17.4 h (NSG mice, brain; intravenous, 10 mg/kg, single dose at MTD, with: paclitaxel 40 mg/kg).
`COc1cc2c(Oc3ccc4[nH]c(C)cc4c3F)ccnc2cc1OCC1(N)CC1` has a Hypothyroidism incidence of 25% (paediatric recurrent refractory sarcoma; 8 mg).
With `CC(C)C[C@@H]1NC(=O)CNC(=O)[C@H](CC(N)=O)NC(=O)[C@H](CCCNC(=N)N)NC(=O)[C@H]([C@@H](C)O)NC(=O)[C@@H]2CSSC[C@@H]3NC(=O)[C@H]([C@@H](C)O)NC(=O)CNC(=O)CNC(=O)[C@H](C(C)C)NC(=O)[C@@H]4CSSC[C@H](NC(=O)[C@H]([C@@H](C)O)NC(=O)[C@H](CSSC[C@H](NC(=O)[C@H](C(C)C)NC(=O)[C@H](CCCCN)NC1=O)C(=O)NCC(=O)N[C@@H](CCC(=O)O)C(=O)N[C@@H]([C@@H](C)O)C(=O)N4)NC(=O)CNC(=O)[C@@H]1CCCN1C(=O)[C@H]([C@@H](C)O)NC(=O)[C@H](CC(N)=O)NC3=O)C(=O)N[C@@H](CO)C(=O)N[C@@H](Cc1c[nH]c3ccccc13)C(=O)N1CCC[C@H]1C(=O)N[C@@H](C(C)C)C(=O)N2` the remaining peptide was 0% (HPLC; ammonium bicarbonate 0.1 M; 180 µM, 14 days, pH 9.0, 37 °C, deamidation stability).
For `COc1cc(N)c(Cl)cc1C(=O)NC[C@@H]1CCN2CCC[C@@H]12`, the IC50 was 17900 ± 1210 nM (BCHE; inhibitor; with Triton).
For `CN(C)CC[C@@H](c1ccc(Br)cc1)c1ccccn1`, the IC50 was 794 nM (Plasmodium falciparum; GB4).
`COc1ccc(C[C@@H]2NC(=O)[C@H]([C@@H](C)O)NC(=O)[C@@H]3[C@@H]4CCN3C(=O)[C@@H]3Cc5cn(c6ccc(F)cc56)CCCCCCN(Cc5ccc(cc5)CCNC(=O)[C@]5(C)CCCN5C2=O)C(=O)CCC(=O)N[C@@H](C)C(=O)N[C@H](CNC(=O)CCCCC[N+](C)(C)C)C(=O)N[C@@H](Cc2cccc(c2)CNC(=O)CO4)C(=O)N3)cc1`: “participants with adverse event” 2% (refers to: Asthenia; humans; concentration not given, Study-001).
The concentration of `CN(C(=O)n1cnc(-c2ccc[n+]([O-])c2)c1)C1CCCCC1` is reported as 9.4 ± 1.3 ng/g (Wistar rat, cerebral cortex; oral, 10 mg/kg/day, 48 h, repeated 5 days).
`CCc1ccc(CC/C=C/c2ccc3c(c2)C(=O)CC3)cc1` has a Glucose of 5.14 mM (Sprague-Dawley rat, male; oral, 30 mg/kg/day, 14 days).
`CCOc1cc(Oc2ccc(C(F)(F)F)cc2Cl)ccc1[N+](=O)[O-]` — result for “final body weight”: 94.5 ± 4.6 g (rat, male; 500 mg/kg, 4 days).
For `CN[C@H]1CC[C@@H](c2ccc(Cl)c(Cl)c2)c2ccccc21`, “elimination rate constant” read 1.85e-05 s⁻¹ (CD-1 mouse, male, plasma; intraperitoneal, 0.3 mg/kg).
Under “any grade ≥3 adverse event”, `NC(=O)[C@H]1CCN(c2ncnc(N)c2F)C[C@@H]1N1CCC[C@@H](Nc2cc(Cl)cc(C(F)(F)F)c2)C1=O` is recorded as 100% (B-cell malignancy patients; oral, 20.5 mg twice daily, dose).
Under “literature range factor”, `Clc1ccc(Cl)c(-c2cc(Cl)c(Cl)cc2Cl)c1` is recorded as 2 (polyethylene-water partitioning; PCB compilation; baseline: maximum over minimum K).
`O=S(=O)(Nc1ccccc1)c1ccc(NC(=S)Nc2ccccc2)cc1`: “serum enzyme activity” 327 U/L (refers to: AST; male mouse, blood; oral, 5 mg/kg daily, 14 days).
`COc1cccc2c1CCCC2CCCN1CCN(C2CCCCC2)CC1` (centres unmarked) gave a Tmax of 0.5 h (CD-1 mouse, male, lung; intraperitoneal, 1 mg/kg).
Under “patients with AST increased”, `C=CC(=O)Nc1cc(Nc2nccc(Nc3cc(Cl)c(F)cc3C(C)(C)O)n2)c(OC)cc1N1CC[C@@H](N(C)C)C1` is recorded as 20% (human patients; oral, 400 mg, treatment-emergent adverse events).
For `CCNC(=O)N1CCN(CCCC(c2ccc(F)cc2)c2ccc(F)cc2)CC1`, the IC50 was 2000 nM (Plasmodium falciparum; D10).
Under “secondary structure content”, `CC(C)C[C@H](NC(=O)[C@H](CCCCN)NC(=O)OCC1c2ccccc2-c2ccccc21)C(=O)N[C@H](C(=O)N[C@@H](Cc1ccccc1)C(=O)N[C@@H](Cc1ccccc1)C(=O)N[C@@H](CCCCN)C(=O)NCC(=O)N[C@@H](Cc1ccccc1)C(=O)N[C@@H](C)C(=O)N[C@@H](Cc1c[nH]c2ccccc12)C(=O)N[C@@H](CC(N)=O)C(=O)N[C@H](C(=O)N[C@H]1CSSC[C@@H](C(=O)N[C@@H](Cc2c[nH]cn2)C(=O)N[C@@H](CCCNC(=N)N)C(=O)N[C@@H](CCCNC(=N)N)C(=O)N[C@@H](C)C(=O)N[C@@H](CC(N)=O)C(N)=O)NC(=O)[C@H](C(C)C)NC(=O)[C@H](CCCNC(=N)N)NC(=O)[C@H](C(C)C)NC(=O)CNC(=O)[C@H](CC(N)=O)NC(=O)[C@H](CCCNC(=N)N)NC(=O)[C@H](Cc2ccc(O)cc2)NC(=O)[C@H](C(C)C)NC1=O)C(C)C)C(C)C` is recorded as 44.5% (circular dichroism, refers to: antiparallel β-sheet; PBS; 80 µM, pH 7.4, with: LPS 1 µM).
The IC50 of `C[C@H]1CN(c2n[nH]c3nc(N[C@H]4CC[C@H](NS(=O)(=O)CCC(F)(F)F)CC4)ncc23)CCO1` is reported as 240 nM (MAPK11 (Homo sapiens, UniProt Q15759); Kinobeads competition; HEK293/K562/placenta extract).
`C[N+](C)(CCOc1ccccc1)Cc1cccs1` has an IC50 of 4620 ± 1360 nM (BCHE; inhibitor, fluorometric).
`Clc1ccc(-c2ccccc2)cc1` has a chloride of 77 ± 14 mmol/L (Sprague-Dawley rats, female, serum; inhalation, 23 µg/rat, 0 h after exposure).
`Clc1ccc(-c2ccc(Cl)c(Cl)c2)cc1Cl` has a log K(PDMS-water) of 5.52 ± 0.06 (fresh water; 20 °C).
For `NC(=O)c1cccc(-c2cc(OC(=O)NC3CCCCC3)ccc2O)c1`, the elimination half-life was 5.8 h (mouse; oral, 10 mg/kg).
`COc1ccnc(C(=O)N[C@H]2COC(=O)[C@H](Cc3ccccc3)[C@@H](OC(=O)C(C)C)[C@H](C)OC2=O)c1OCOC(=O)C(C)C` gave a DT50 of 4.58 days (aerobic dark soil incubation; sandy loam soil; 20 °C, modelling endpoint).
`N[C@@H]1c2ccccc2OC12CCN(c1cnc3c(N4CCCc5ncccc54)n[nH]c3n1)CC2` — result for “decreased appetite TEAE incidence”: 24% (patients advanced metastatic solid tumours; oral, 60 mg once daily, pooled cohort).
Under “dose-reducing adverse events”, `CO[C@H]1C[C@@H]2CC[C@@H](C)[C@@](O)(O2)C(=O)C(=O)N2CCCC[C@H]2C(=O)O[C@H]([C@H](C)C[C@@H]2CC[C@@H](OC(=O)NCCOCCOCCOCCOCCOCCOCCOCCOCCC(=O)N3CCc4cc(Cn5nc(-c6ccc7oc(N)nc7c6)c6c(N)ncnc65)ccc4C3)[C@H](OC)C2)C[C@@H](O)[C@H](C)/C=C(\C)[C@@H](O)[C@@H](OC)C(=O)[C@H](C)C[C@H](C)/C=C/C=C/C=C/1C` is recorded as 0% (phase 1 dose escalation, refers to: neutropenia; advanced solid tumour patients; intravenous, 8 mg weekly, any grade).
Under “patients with TEAE”, `O=C1Nc2cc3[nH]nc(-c4ccncc4)c3cc2CN1Cc1ccccc1` is recorded as 12% (refers to: Constipation; patients with advanced solid tumours; intravenous, dose not given, all schedules).
